# Results gathered from unrelated publications.
# “And” joins repeats or separate records; there may be more than shown. ± marks the error that the study gave.
Substance,test,system,conditions,how to read,measurement,result
CC(C)C[C@@H](NC(=O)[C@@H](CC(C)C)NC(=O)[C@@H](CC(=O)O)NC(=O)[C@@H](CC(C)C)NC(=O)[C@@H](CC(C)C)NC(=O)[C@@H](CC(C)C)NC(=O)[C@H](NC(=O)[C@@H](CC(=O)O)NC(=O)[C@H](NC(=O)[C@H]1CCCN1C(=O)[C@@H](Cc1ccccc1)NC(=O)[C@@H](CC(C)C)NC(=O)[C@@H](CC(C)C)NC(=O)[C@@H](CC(=O)O)NC(=O)[C@@H](CC(C)C)NC(=O)[C@@H](Cc1ccc(O)cc1)NC(=O)[C@@H](C)NC(=O)[C@@H](CCCNC(=N)N)NC(=O)[C@@H](Cc1c[nH]c2ccccc12)NC(=O)[C@H]1CCCN1C(=O)[C@@H](CC(N)=O)NC(=O)[C@@H](CCC(N)=O)NC(=O)[C@@H](CC(=O)O)NC(=O)[C@@H](CC(=O)O)NC(=O)[C@@H](CSC1CC(=O)N(CCNC(=O)CN2CCN(CC(=O)O)CCN(CC(=O)O)CC2)C1=O)NC(=O)[C@@H](C)N)[C@H](C)O)[C@H](C)O)C(=O)N[C@H](Cc1c[nH]c2ccccc12)C(=O)O (stereo partly drawn) [fluorine-18 labelled],,"female C57BL/6 mice, B16-F10 melanoma, blood","intravenous, 8 h",,tissue uptake,14.3 %ID/g
nucleophosmin S112E,"far-UV CD, CDSSTR","Tris buffer, NaCl","pH 7.5, room temperature",,alpha-helix content,16%
CCCC[C@H](NC(=O)CCCCCCCNC(=O)CN1CCN(CC(=O)O)CCN(CC(=O)O)CC1)C(=O)N[C@H]1CC(=O)NCCCC[C@@H](C(N)=O)NC(=O)[C@H](Cc2c[nH]c3ccccc23)NC(=O)[C@H](CCCNC(=N)N)NC(=O)[C@@H](Cc2ccccc2)NC(=O)[C@H](Cc2c[nH]cn2)NC1=O [technetium-99m labelled],,"C57 mouse, stomach","intravenous, 0.037 MBq, 24 h",,tissue uptake,0.6 ± 0.3 %ID/g
human nucleophosmin,"far-UV CD, CDSSTR","Tris buffer, NaCl","pH 7.5, room temperature",,alpha-helix content,16%
N=C(N)NCCC[C@@H]1NC(=O)[C@H](CCCCNC(=S)Nc2ccc(CC3CN(CC(=O)O)CCN(CC(=O)O)CCN(CC(=O)O)CCN3CC(=O)O)cc2)NC(=O)[C@@H](Cc2ccc(O)cc2)NC(=O)[C@H](CC(=O)O)NC(=O)CNC1=O (stereo partly drawn) [actinium-225 labelled],,"mice with U-87 MG tumour, tumour",dose not given,,initial activity A0,0.0021 µCi
O=C(CCCc1cn(C[C@H]2O[C@@H]3O[C@H]4[C@H](O)[C@@H](O)[C@@H](O[C@H]5[C@H](O)[C@@H](O)[C@@H](O[C@H]6[C@H](O)[C@@H](O)[C@@H](O[C@H]7[C@H](O)[C@@H](O)[C@@H](O[C@H]8[C@H](O)[C@@H](O)[C@@H](O[C@H]2[C@H](O)[C@H]3O)O[C@@H]8Cn2cc(CCCC(=O)N[C@H]3CCOC3=O)nn2)O[C@@H]7Cn2cc(CCCC(=O)N[C@H]3CCOC3=O)nn2)O[C@@H]6Cn2cc(CCCC(=O)N[C@H]3CCOC3=O)nn2)O[C@@H]5Cn2cc(CCCC(=O)N[C@H]3CCOC3=O)nn2)O[C@@H]4Cn2cc(CCCC(=O)N[C@H]3CCOC3=O)nn2)nn1)N[C@H]1CCOC1=O,1H NMR,,,reference: native alpha-cyclodextrin,water solubility fold decrease,~50
C=C1CC[C@H](OCCCNC(=O)CCOCCOCCOCCOCCOCCOCCOCCOCCOCCOCCOCCOCCOCCOCCOCCOCCOCCOCCOCCOCCOCCOCCOCCOCCOCCOCCOCCOCCOCCOCCOCCOCCOCCOCCOCCOCCNC(=O)CCN2C(=O)CC(SC[C@H](NC(=O)[C@H](Cc3ccccc3)NC(=O)[C@H](CC(N)=O)NC(=O)[C@H](Cc3c[nH]cn3)NC(=O)[C@@H](NC(=O)[C@H](CC(=O)O)NC(=O)[C@H](CCC(N)=O)NC(=O)[C@H](CC(C)C)NC(=O)[C@H](CCCCN)NC(=O)[C@H](CCCCN)NC(=O)[C@H](CCCNC(=N)N)NC(=O)[C@H](CC(C)C)NC(=O)[C@H](Cc3c[nH]c4ccccc34)NC(=O)[C@H](CCC(=O)O)NC(=O)[C@@H](NC(=O)[C@H](CCCNC(=N)N)NC(=O)[C@H](CCC(=O)O)NC(=O)[C@H](CCSC)NC(=O)[C@H](CO)NC(=O)[C@H](CC(N)=O)NC(=O)[C@H](CC(C)C)NC(=O)[C@H](Cc3c[nH]cn3)NC(=O)[C@H](CCCCN)NC(=O)CNC(=O)[C@H](CC(C)C)NC(=O)[C@H](CC(N)=O)NC(=O)[C@H](Cc3c[nH]cn3)NC(=O)[C@H](CCSC)NC(=O)[C@H](CC(C)C)NC(=O)[C@H](CCC(N)=O)NC(=O)[C@@H](NC(=O)[C@H](CCC(=O)O)NC(=O)[C@H](CO)NC(=O)[C@@H](NC(=O)[C@@H](N)CO)C(C)C)[C@@H](C)CC)C(C)C)C(C)C)C(=O)O)C2=O)C/C1=C/C=C1\CCC[C@]2(C)[C@@H]([C@H](C)CCCC(C)(C)O)CC[C@@H]12 (stereo partly drawn),,cynomolgus monkey male,"sc, 0.02 mg/kg single",,clearance,0.134 mL/min/kg
CC(C)C[C@H](NC(=O)[C@@H](CCCCNC(=O)[C@@H](Cc1ccccc1)NC(=O)CCCCCNC(=O)CN1CCN(CC(=O)O)CCN(CC(=O)O)CCN(CC(=O)O)CC1)NC(=O)[C@H](Cc1ccc(O)cc1)NC(=O)[C@H](CO)NC(=O)[C@H](Cc1c[nH]c2ccccc12)NC(=O)[C@H](Cc1c[nH]cn1)NC(=O)[C@@H]1CCC(=O)N1)C(=O)N[C@@H](CCCNC(=N)N)C(=O)N1CCC[C@H]1C(=O)NCC(N)=O [indium-111 labelled],,"female athymic nude mice, liver","intravenous, 0.037 MBq, 4 h",,tissue uptake,0.36 ± 0.04 %ID/g
CC(C)C[C@H](NC(=O)[C@H](Cc1ccc(O)cc1)NC(=O)[C@@H](CCCNC(=N)N)NC(=O)[C@@H](CO)NC(=O)[C@H](Cc1ccccc1)NC(=O)[C@H](CC1CCCCC1)NC(=O)[C@H](CC(=O)O)NC(=O)CN1CCN(CC(=O)O)CCN(CC(=O)O)CCN(CC(=O)O)CC1)C(=O)N[C@@H](Cc1c[nH]c2ccccc12)C(=O)N[C@@H](CO)C(=O)O [copper-64 labelled],,"human, brain","concentration not given, 1 h",,activity concentration,171 Bq/mL and 157 Bq/mL and 235 Bq/mL and 146 Bq/mL and 310 Bq/mL and 366 Bq/mL

# For quick reference, copied from above:
Substance,test,system,conditions,how to read,measurement,result
CC(C)C[C@H](NC(=O)[C@@H](CCCCNC(=O)[C@@H](Cc1ccccc1)NC(=O)CCCCCNC(=O)CN1CCN(CC(=O)O)CCN(CC(=O)O)CCN(CC(=O)O)CC1)NC(=O)[C@H](Cc1ccc(O)cc1)NC(=O)[C@H](CO)NC(=O)[C@H](Cc1c[nH]c2ccccc12)NC(=O)[C@H](Cc1c[nH]cn1)NC(=O)[C@@H]1CCC(=O)N1)C(=O)N[C@@H](CCCNC(=N)N)C(=O)N1CCC[C@H]1C(=O)NCC(N)=O [indium-111 labelled],,"female athymic nude mice, liver","intravenous, 0.037 MBq, 4 h",,tissue uptake,0.36 ± 0.04 %ID/g
